Assay results pooled from the literature.
Parts stem from different laboratories: compare values within a part only.
UniProt Q16512, sequence (whole entry, looked up): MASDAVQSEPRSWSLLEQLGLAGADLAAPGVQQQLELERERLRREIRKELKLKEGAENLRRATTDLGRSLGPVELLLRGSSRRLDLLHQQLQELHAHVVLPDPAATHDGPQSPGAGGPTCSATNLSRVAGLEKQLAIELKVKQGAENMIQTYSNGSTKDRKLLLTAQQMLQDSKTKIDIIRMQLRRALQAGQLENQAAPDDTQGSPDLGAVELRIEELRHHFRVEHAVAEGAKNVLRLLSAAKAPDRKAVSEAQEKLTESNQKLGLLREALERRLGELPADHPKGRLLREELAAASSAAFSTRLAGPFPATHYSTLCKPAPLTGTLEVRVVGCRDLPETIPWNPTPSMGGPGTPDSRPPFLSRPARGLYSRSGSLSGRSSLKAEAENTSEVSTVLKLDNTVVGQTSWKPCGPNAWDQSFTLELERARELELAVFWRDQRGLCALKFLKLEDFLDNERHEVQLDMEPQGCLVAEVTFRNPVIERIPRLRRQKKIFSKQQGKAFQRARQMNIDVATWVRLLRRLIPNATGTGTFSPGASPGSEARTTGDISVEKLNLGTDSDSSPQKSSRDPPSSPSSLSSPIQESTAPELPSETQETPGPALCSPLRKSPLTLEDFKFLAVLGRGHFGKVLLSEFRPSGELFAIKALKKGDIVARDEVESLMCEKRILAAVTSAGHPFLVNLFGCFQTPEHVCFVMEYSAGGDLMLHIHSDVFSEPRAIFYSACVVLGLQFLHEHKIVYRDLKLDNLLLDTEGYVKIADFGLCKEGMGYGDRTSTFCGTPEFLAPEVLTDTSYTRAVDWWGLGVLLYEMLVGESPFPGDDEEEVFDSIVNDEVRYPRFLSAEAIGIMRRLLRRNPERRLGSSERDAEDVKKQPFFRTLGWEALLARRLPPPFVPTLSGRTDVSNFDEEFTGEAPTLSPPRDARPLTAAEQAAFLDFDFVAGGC
UniProt P27448, sequence (whole entry, looked up): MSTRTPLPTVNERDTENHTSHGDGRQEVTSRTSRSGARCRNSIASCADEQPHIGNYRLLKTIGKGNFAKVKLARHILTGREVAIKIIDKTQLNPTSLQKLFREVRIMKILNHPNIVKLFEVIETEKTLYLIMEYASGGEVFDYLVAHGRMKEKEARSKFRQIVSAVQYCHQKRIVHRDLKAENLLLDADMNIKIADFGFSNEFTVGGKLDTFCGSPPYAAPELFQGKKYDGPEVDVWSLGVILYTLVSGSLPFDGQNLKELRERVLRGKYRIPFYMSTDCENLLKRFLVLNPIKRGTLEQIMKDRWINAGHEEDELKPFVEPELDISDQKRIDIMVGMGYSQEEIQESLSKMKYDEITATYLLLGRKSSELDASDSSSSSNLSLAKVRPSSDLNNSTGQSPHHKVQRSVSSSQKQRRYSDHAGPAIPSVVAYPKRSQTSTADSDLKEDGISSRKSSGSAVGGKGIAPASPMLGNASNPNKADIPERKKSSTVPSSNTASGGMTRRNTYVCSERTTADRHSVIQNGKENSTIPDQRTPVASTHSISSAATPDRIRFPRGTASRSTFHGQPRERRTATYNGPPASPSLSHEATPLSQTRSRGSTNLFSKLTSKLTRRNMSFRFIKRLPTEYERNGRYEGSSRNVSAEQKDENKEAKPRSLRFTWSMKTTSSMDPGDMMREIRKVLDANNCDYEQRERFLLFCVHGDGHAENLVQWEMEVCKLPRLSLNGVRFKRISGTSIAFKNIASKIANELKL
UniProt P16591, sequence (whole entry, looked up): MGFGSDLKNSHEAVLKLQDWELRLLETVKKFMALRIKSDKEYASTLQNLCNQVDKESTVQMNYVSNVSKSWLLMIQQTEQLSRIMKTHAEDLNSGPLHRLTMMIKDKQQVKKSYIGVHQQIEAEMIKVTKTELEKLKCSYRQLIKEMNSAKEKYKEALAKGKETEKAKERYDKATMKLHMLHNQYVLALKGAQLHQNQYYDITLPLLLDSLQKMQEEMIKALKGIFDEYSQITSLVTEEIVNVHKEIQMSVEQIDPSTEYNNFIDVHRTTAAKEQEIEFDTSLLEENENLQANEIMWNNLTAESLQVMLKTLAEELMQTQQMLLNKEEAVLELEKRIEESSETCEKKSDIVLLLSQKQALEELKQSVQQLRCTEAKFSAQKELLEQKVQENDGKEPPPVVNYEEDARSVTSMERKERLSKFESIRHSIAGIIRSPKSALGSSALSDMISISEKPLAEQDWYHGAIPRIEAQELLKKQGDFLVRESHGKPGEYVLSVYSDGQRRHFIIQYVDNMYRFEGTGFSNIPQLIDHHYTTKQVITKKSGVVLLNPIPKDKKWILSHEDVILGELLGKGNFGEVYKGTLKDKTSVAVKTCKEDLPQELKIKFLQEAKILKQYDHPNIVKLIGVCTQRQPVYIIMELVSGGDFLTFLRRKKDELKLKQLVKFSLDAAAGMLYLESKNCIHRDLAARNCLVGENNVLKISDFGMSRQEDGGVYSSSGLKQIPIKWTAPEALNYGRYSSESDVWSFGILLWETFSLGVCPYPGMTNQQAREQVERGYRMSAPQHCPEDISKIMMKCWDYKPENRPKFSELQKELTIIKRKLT
UniProt Q9H2K8, sequence (whole entry, looked up): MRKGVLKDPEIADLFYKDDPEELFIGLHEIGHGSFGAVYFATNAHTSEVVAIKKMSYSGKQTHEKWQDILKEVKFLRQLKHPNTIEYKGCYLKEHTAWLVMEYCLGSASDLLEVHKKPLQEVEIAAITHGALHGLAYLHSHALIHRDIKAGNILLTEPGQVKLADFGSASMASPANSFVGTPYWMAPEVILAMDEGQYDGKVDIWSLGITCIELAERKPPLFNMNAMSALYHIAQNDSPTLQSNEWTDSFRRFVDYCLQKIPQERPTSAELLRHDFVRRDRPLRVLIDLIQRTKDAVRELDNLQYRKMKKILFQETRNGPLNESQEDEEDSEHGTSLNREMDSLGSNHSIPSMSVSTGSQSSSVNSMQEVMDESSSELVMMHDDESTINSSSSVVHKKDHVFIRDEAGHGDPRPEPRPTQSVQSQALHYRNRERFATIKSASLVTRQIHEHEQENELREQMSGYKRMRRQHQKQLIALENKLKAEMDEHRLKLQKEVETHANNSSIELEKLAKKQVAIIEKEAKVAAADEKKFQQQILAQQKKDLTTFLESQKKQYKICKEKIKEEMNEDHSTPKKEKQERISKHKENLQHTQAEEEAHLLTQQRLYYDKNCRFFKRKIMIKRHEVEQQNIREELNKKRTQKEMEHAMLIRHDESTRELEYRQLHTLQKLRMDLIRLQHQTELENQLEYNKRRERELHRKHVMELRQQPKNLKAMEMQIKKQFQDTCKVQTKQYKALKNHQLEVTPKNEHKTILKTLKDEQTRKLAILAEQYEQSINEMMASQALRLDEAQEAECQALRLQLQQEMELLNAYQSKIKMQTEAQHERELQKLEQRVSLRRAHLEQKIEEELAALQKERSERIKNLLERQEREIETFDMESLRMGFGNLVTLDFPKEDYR
UniProt P53667, sequence (whole entry, looked up): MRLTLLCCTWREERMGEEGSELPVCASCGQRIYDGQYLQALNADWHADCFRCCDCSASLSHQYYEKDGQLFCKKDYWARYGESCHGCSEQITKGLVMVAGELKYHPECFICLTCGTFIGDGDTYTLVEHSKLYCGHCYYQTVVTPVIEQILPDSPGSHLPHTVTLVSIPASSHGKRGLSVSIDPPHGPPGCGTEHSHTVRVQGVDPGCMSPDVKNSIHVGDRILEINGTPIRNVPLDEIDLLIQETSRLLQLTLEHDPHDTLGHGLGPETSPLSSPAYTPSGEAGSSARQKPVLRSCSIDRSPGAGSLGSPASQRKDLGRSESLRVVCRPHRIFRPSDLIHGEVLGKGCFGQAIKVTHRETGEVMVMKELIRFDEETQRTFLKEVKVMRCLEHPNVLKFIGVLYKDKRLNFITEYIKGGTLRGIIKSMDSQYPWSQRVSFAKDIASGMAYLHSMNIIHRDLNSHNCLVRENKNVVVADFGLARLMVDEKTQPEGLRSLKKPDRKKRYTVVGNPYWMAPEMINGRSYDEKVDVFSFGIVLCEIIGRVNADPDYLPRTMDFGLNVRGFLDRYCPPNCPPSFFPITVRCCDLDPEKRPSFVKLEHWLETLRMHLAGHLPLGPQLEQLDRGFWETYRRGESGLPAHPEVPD
UniProt P31749, sequence (whole entry, looked up): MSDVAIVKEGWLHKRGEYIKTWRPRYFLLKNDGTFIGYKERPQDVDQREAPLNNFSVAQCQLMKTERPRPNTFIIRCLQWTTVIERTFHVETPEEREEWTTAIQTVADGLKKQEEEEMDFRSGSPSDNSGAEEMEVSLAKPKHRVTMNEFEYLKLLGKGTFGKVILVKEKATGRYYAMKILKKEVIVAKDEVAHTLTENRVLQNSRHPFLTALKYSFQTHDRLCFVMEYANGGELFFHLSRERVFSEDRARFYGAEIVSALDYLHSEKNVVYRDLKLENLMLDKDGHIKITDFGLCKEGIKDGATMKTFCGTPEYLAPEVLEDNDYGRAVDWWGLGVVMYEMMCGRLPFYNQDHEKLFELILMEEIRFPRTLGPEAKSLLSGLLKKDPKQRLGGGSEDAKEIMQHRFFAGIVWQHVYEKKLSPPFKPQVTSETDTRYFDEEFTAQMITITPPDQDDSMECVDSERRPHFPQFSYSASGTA

Study 1
Cell line: normal-adjacent organoid sample D
Technique: CellTiter-Glo
Concentration: 1 µM
Notes: replicate mean
Baseline: DMSO
Endpoint: viability
CN(C)[C@@H]1CCN(c2cc(-c3ccccc3)nc3ccnn23)C1: 115%
O=C1c2ccc(Nc3ccc(F)cc3F)cc2CCc2ccc(OC[C@H](O)CO)cc21: 119%
Cc1ccccc1Oc1cc(-n2c(=O)cc(C(F)(F)F)[nH]c2=O)c2ccccc2c1Cl: 122%
CC(=O)Nc1c(F)cc(C(=O)N[C@H]2CC[C@H](O)CC2)cc1O[C@@H](C)c1ccccc1: 105%
CN(C)C(=O)Cn1cc(-c2ccc(-c3cncc4ccccc34)cc2)cn1: 127%
CNc1nc(-c2ccc3c(N)n[nH]c3c2)cc(N2C[C@@H](C(=O)NC3CCCCC3)CC[C@H]2C)n1: 74.3%
O=C(NNS(=O)(=O)c1ccccc1)c1cc(-c2ccnnc2)ccc1F: 110%
c1ccc2oc(-c3csc(C4CCN(Cc5nc6ncccc6[nH]5)CC4)n3)cc2c1: 39.3%
Cc1c(N2CCCC2)nc2ccc(Br)cc2c1C(=O)NC[C@H](CCC(=O)O)c1ccccc1Cl: 93.2%
Cn1c(-c2csc(C3CCN(Cc4nc5ncccc5[nH]4)CC3)n2)nc2ccccc21: 88.8%
CNC(=O)c1cc(C(=O)N[C@H]2[C@@H]3COC[C@@H]32)cc2c1O[C@@H](CF)[C@@H]2c1ccccc1: 97.5%
N#CC1(c2ccccn2)CCN(Cc2cc(C(=O)N3CCCC3)c(=O)n3ccccc23)CC1: 110%
Nc1nc(NCc2ccccc2)nc(-c2ccccc2CO)n1: 114%
Nc1nc(NCc2ccccc2)nc(-c2cccc(CO)c2)n1: 135%
CNC(=O)c1ccccc1Nc1cc(Nc2ccc(N3CCOCC3)cc2OC)ncc1C(F)(F)F: 26.6%
O=C(NNS(=O)(=O)c1ccccc1F)c1cc(F)cc(-c2ccccn2)c1: 89.5%
O=C(NCCN1CCOCC1)c1ccc2c(c1)C(=O)c1ccc(Nc3ccc(F)c(NC(=O)c4ccccc4)c3)cc1CC2: 85%
O=C(O)c1ccc(-c2c[nH]c3ncc(-c4ccccc4)cc23)cc1C1CCCC1: 116%
Cc1c(N2CCNCC2)nc2ccc(Br)cc2c1C(=O)NC[C@H](CCC(=O)O)c1ccccc1Cl: 88.6%
N#CC1(c2ccccn2)CCN(Cc2cc(C(=O)O)c(=O)n3ccccc23)CC1: 104%
CN(C(=O)c1ccccc1)c1cc(N(C)c2ccc3c(c2)CCc2ccc(C(=O)NCCN4CCOCC4)cc2C3=O)ccc1F: 83.8%

Study 2
Organism: Sarcocystis neurona
Read-out: parasite growth
Concentration: 10 µM
Time: 96 h
Notes: first screen
Baseline: untreated
Endpoint: log2 fold change
Cc1[nH]c(=O)c(C#N)cc1-c1ccncc1: 0.28
NS(=O)(=O)c1cc2c(cc1Cl)NCNS2(=O)=O: 0.26
OCc1cc(C(O)CNCCCCCCOCCCCc2ccccc2)ccc1O (centres unmarked): -0.49
C=CC1=C(C(=O)O)N2C(=O)[C@@H](NC(=O)/C(=N\O)c3csc(N)n3)[C@H]2SC1: 0.3
CCS(=O)(=O)CCn1c([N+](=O)[O-])cnc1C: -0.06
COc1ccc(-c2oc3c(CC=C(C)C)c(O[C@@H]4O[C@H](CO)[C@@H](O)[C@H](O)[C@H]4O)cc(O)c3c(=O)c2O[C@@H]2O[C@@H](C)[C@H](O)[C@@H](O)[C@H]2O)cc1: 0.00321
CC(C)[C@H]1CC[C@H](C(=O)N[C@H](Cc2ccccc2)C(=O)O)CC1: 0.25
CC(COc1ccccc1)N(CCCl)Cc1ccccc1 (centres unmarked): 0.32
O=c1c(O[C@@H]2O[C@H](CO)[C@@H](O)[C@H](O)[C@H]2O)c(-c2ccc(O)c(O)c2)oc2cc(O)cc(O)c12: 0.16
COCCCOc1ccnc(C[S+]([O-])c2nc3ccccc3[nH]2)c1C (centres unmarked): 0.25

Study 3
Target: Calcium/calmodulin-dependent protein kinase type II subunit alpha (CAMK2A, Homo sapiens, UniProt Q9UQM7)
UniProt Q9UQM7, sequence (whole entry, looked up): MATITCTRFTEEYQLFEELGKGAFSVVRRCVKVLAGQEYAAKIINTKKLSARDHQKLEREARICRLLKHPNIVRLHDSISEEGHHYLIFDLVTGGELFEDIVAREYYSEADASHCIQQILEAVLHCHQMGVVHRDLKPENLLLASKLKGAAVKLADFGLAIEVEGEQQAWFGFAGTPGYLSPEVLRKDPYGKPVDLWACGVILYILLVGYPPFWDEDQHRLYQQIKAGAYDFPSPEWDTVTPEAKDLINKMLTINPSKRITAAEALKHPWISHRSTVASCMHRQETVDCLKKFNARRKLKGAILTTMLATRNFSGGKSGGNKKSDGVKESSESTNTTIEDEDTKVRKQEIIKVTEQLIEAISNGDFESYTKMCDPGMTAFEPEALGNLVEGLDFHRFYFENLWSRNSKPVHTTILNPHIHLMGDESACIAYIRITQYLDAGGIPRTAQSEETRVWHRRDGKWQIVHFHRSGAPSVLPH
Read-out: enzyme activity
Action: inhibitor
Concentration: 10 µM
Endpoint: inhibition
C[C@@H]1CC[C@@]2(OC1)O[C@H]1C[C@H]3[C@@H]4CC=C5C[C@@H](O[C@@H]6O[C@H](CO)[C@@H](O[C@@H]7O[C@@H](CO)[C@H](O)[C@H]7O)[C@H](O)[C@H]6O[C@@H]6O[C@@H](C)[C@H](O)[C@@H](O)[C@H]6O)CC[C@]5(C)[C@H]4CC[C@]3(C)[C@@]1(O)[C@@H]2C: -8%
O=C(O)C(=O)c1ccccc1: -4%
CC(=O)O[C@]1(C(C)=O)CC[C@H]2[C@@H]3C[C@H](C)C4=CC(=O)CC[C@]4(C)[C@H]3CC[C@@]21C: 7%
CCOC(=O)c1ccc(OC(=O)CCCCCNC(=N)N)cc1: -15%
O=C(O)Cc1cc(I)c(Oc2cc(I)c(O)c(I)c2)c(I)c1: -24%
COc1ccc2c3ccnc4ccc(=O)n(c2c1)c43: -29%
CN(C)c1nc2c(ncn2[C@@H]2O[C@H](CO)[C@@H](O)[C@H]2O)c(=O)[nH]1: -25%
Oc1ncnc2[nH]ncc12: -5%

Study 4
Structure (SMILES): CC#CC(=O)Nc1cc2c(Nc3ccc(F)c(Cl)c3)ncnc2cn1
Read-out: enzyme activity
Action: inhibitor
Concentration: 0.5 µM
Baseline: control
Endpoint: remaining activity
MARK3 (Homo sapiens, UniProt P27448): 107%
ITK (Homo sapiens, UniProt Q08881): 76.3%
TAOK3 (Homo sapiens, UniProt Q9H2K8): 110%
NEK11 (Homo sapiens, UniProt Q8NG66): 86.6%
ALK (Homo sapiens, UniProt Q9UM73): 103%
Cyclin-dependent kinase 3, with cyclin E (CDK3, Homo sapiens, UniProt Q00526): 96.8%
SRC (Homo sapiens, UniProt P12931): 97.7%
FLT4 (Homo sapiens, UniProt P35916): 92.8%
FYN (Homo sapiens, UniProt P06241): 95.8%
PRKX (Homo sapiens, UniProt P51817): 103%
PKN1 (Homo sapiens, UniProt Q16512): 101%
NLK (Homo sapiens, UniProt Q9UBE8): 99.7%
FGR (Homo sapiens, UniProt P09769): 89.6%
LIM domain kinase 1 (LIMK1, Homo sapiens, UniProt P53667): 84.2%
MATK (Homo sapiens, UniProt P42679): 95.8%
AKT1 (Homo sapiens, UniProt P31749): 98.1%
Insulin receptor (INSR, Homo sapiens, UniProt P06213): 99.6%
FER (Homo sapiens, UniProt P16591): 98.2%
STK25 (Homo sapiens, UniProt O00506): 97.1%
CDC42BPA (Homo sapiens, UniProt Q5VT25): 93.1%

A few entries again (study 2):
CCS(=O)(=O)CCn1c([N+](=O)[O-])cnc1C: -0.06
COc1ccc(-c2oc3c(CC=C(C)C)c(O[C@@H]4O[C@H](CO)[C@@H](O)[C@H](O)[C@H]4O)cc(O)c3c(=O)c2O[C@@H]2O[C@@H](C)[C@H](O)[C@@H](O)[C@H]2O)cc1: 0.00321
CC(C)[C@H]1CC[C@H](C(=O)N[C@H](Cc2ccccc2)C(=O)O)CC1: 0.25
CC(COc1ccccc1)N(CCCl)Cc1ccccc1 (centres unmarked): 0.32
O=c1c(O[C@@H]2O[C@H](CO)[C@@H](O)[C@H](O)[C@H]2O)c(-c2ccc(O)c(O)c2)oc2cc(O)cc(O)c12: 0.16
COCCCOc1ccnc(C[S+]([O-])c2nc3ccccc3[nH]2)c1C (centres unmarked): 0.25
